# Measured values of several laboratories.
# Protocols differ between the studies behind these lines. “And” joins repeats or separate records; there may be more than shown.
# Target: Inhibitor of nuclear factor kappa-B kinase subunit alpha (CHUK, Homo sapiens, UniProt O15111)
SMILES,test,test system,setting,scale,measurement,result
NC(=O)[C@@H](O)C[C@H]1CCc2sc3ncnc(O[C@H]4CC[C@H](N5CCOCC5)CC4)c3c21,"enzyme activity, inhibitor",,10 µM,,inhibition,9%
CC(=O)N1c2ccc(-c3ccc(CNC(=O)c4cn5cc(-c6cnc(N)nc6)nc(N6CCOCC6)c5n4)cc3)cc2CC[C@@H]1C,KINOMEscan,,10 µM,,remaining binding,52%
Cc1cnc2nc1Nc1cccc(c1)COC/C=C/COCc1cc(ccc1OCCN1CCOCC1)N2,"binding, competition with immobilised ligand",,0.1 µM,,remaining binding,94%
CNC1C[S+]2CC[S+]3CC[S+](C1)[Ru-4]321([N]=C=S)[n]2c3ccc(OC)cc3c3c4c(c5cc(F)c[n+]1c5c32)C(=O)NC4=O (stereo not drawn),KinomeScan,,0.1 µM,relative to: untreated,remaining binding,99%
COc1c(Cl)cccc1Nc1c(-c2ccncc2C#C[C@@]2(C)CCCN2C(=O)/C=C/CN(C)C)[nH]c2c1C(=O)NCC2,"cell-free assay, competition with immobilised ligand",,3 µM,,remaining binding,75%
CS(=O)(=O)Nc1cccc(-c2csc3cnc(Nc4ccc(N5CCN(CCCCCOc6cccc7c6C(=O)N(C6CCC(=O)NC6=O)C7=O)CC5)cc4)nc23)c1 (stereo not drawn),"probe labelling, inhibitor, KiNativ chemoproteomics",MOLT-4,1 µM,,inhibition,-23.7%
O=C(O)CCC(=O)c1cccc(NS(=O)(=O)c2c[nH]c3ncccc23)c1,"kinase activity, radiometric",,10 µM,,remaining activity,115%
CN1CC[C@@H](COc2cnc(C#N)cc2-c2ccn3nc(NC(=O)C4CC4)cc3c2)C1,"inhibitor, KinaseProfiler panel",,1 µM,,inhibition,19%
CC(C)=CC1OC(C)(C)C2C=C3C(=O)C(Cl)=CC(O)C3C3C(O)C4OC4C(=O)C132 (stereo not drawn),"cell-free assay, competition with immobilised ligand",,10 µM,,remaining binding,61%
C=CC(=O)Nc1cccc(-c2cnc3[nH]cc(C(=O)NC(C)(C)C)c3n2)c1,kinase activity,,0.1 µM,,inhibition,1%
COCC12C(=O)NC3C4(C(OC)CC1O)C1CC5(O)C(OC)C(O)C(OC(C)=O)(C1C5OC(=O)c1ccccc1)C3(O)C(OC)C24 (stereo not drawn),"kinase activity, inhibitor, ProQinase kinase profiling",,25 µM,relative to: control,remaining activity,87% and 103%
Cc1ccc(-c2c(/C=C(\C#N)C(=O)NC(C)C)n(CCCO)c3ncnc(N)c23)cc1,"cell-free assay, competition with immobilised ligand",,1 µM,,remaining binding,73%
CC(=O)Nc1ccc(-c2ccnc(NCC3CCC3)n2)cc1,"cell-free assay, competition with immobilised ligand",,10 µM,,remaining binding,31%
COc1cc(-n2cc3cc(F)cc(C(N)=O)c3n2)cc(Cl)c1C1CC(O)(CCO)Cc2ccccc21 (stereo not drawn),"enzyme activity, inhibitor",,10 µM,,inhibition,0.4%
CNC(=O)C1CCN(c2cc(C)c(F)cc2NC(=O)c2ccc(-c3cc(O)ccc3C)c(C)c2)CC1,"binding, competition with immobilised ligand",,1 µM,,remaining binding,100%
COc1ccc(NC(=O)Nc2ccc3c(c2)C(=O)N(C(C)CO)CC(C)C(CN(C)Cc2ccc4c(c2)OCO4)O3)cc1 (stereo not drawn),"kinase activity, KinaseProfiler",,"0.03 µM, species human",relative to: control,remaining activity,101%
COc1cc(Nc2nc(C)cc(-c3cnn4nc(OC)ccc34)n2)cc(C(F)(F)F)c1,KINOMEscan,,"1 µM, IKK-alpha",relative to: DMSO,remaining binding,95%
Fc1cncc(-c2ccc3[nH]c4ncnc(N[C@H]5CC[C@H](N6CCOCC6)CC5)c4c3c2)c1,"enzyme activity, inhibitor, radiometric",,1 µM,,inhibition,68%
Cc1cccc(O[C@H]2CCC[C@@H](C(C)CNCc3ccncc3)C2)c1 (relative stereo),"enzyme activity, inhibitor",,1 µM,,inhibition,34%
CN1CCN(Cc2ccc(NC(=O)c3cccc(C#Cc4cnc(N)c5ncccc45)c3)cc2C(F)(F)F)CC1,"cell-free assay, competition with immobilised ligand",,50 nM,,remaining binding,1.9%
COc1c(OCCCN2CCOCC2)ccc2c1N=C(NC(=O)c1cnc(N)nc1)N1CCN=C21,"kinase activity, inhibitor",,1 µM,relative to: untreated control,remaining activity,109%

# For quick reference, copied from above:
SMILES,test,test system,setting,scale,measurement,result
COc1ccc(NC(=O)Nc2ccc3c(c2)C(=O)N(C(C)CO)CC(C)C(CN(C)Cc2ccc4c(c2)OCO4)O3)cc1 (stereo not drawn),"kinase activity, KinaseProfiler",,"0.03 µM, species human",relative to: control,remaining activity,101%
Cc1ccc(-c2c(/C=C(\C#N)C(=O)NC(C)C)n(CCCO)c3ncnc(N)c23)cc1,"cell-free assay, competition with immobilised ligand",,1 µM,,remaining binding,73%
